Assay results of several laboratories.
A part holds a random share of what one study measured. Positions count from the first letter of the parent shown.

Series 1
Target: RNA binding protein fox-1 homolog 2, RRM domain, GST-SBP tag (RBFOX2, Homo sapiens, UniProt O43251-10, residues 100-194)
Method: RNA Bind-n-Seq
Molecule type: RNA
Sample: in vitro
Tested at: 365 nM
Notes: natural RNA segment, single round, ends assumed
Relative to: no-protein control
Direction: higher = stronger binding
Constant ends, left off below: GGGAGUUCUACAGUCCGACGAUC … UGGAAUUCUCGGGUGCCAA
Target sequence (chain): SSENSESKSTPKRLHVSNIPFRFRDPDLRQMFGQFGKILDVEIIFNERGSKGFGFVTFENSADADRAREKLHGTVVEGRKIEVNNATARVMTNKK
Strand	RBNS enrichment (R)
UGCCACUAAUUUUAGUAUUCAUUCUGCAUUGCUAGAUAAAAGCUGAAGUUACUUUAUGUUUGUCUUUUAAUGCUUCAUUCAAUAUUGACAUUUGUAGUUGAGCGGGGGGU	0.247
GGGAGUGGGGCGGGACCACUGUAGGACAGCGAAGGCAUAUAGUGGCGCAUAAAAGCCUGCUGGCUCGGGGCGCCUGCCUCCCUGCUCCUCUGUCCUCAAACAGUGAACCC	0.405
UCUGAGAUAGCUGGAUUGUAUAUACUUGCAGAUUUAAAAAUAUAGGGAAAUUGAAAAAGACAUGUAGAAUUUUGUUAGGUCUUCUGCUAAGCACGAAUAAGAUAUCUGCU	4.23
UUCCUCCUGGACCCCAUCCUCUACCAUCCAAGCCCUGUCCCACUUUGGCCCUAUCCUCUCCAUUAGCUCCUUCCGGGUUUGGACCAUUCCCCCCACUCCCUACCCUUAAU	0.979
GGAGGGUUAGGCAUGGGUGACACCCCAGAAGGGAACUUUCAUCUUUUCCCUUCCAAAAAUUGUCAACUGACUGAGGACAAAGAGAAAGCACCUCCCAGAAAGCUGUGAGC	0.486
GGGCAAGUCUGAUCUCAGCACCCACGAGCCACAUCCUGGGCCAAGCAACAGUAACCCUUGCCAAGCAACGACGGGGUAGAAUUUCUAUGUUCCCAAAUUCAGCAGUAACG	0.257
UGGAGCCAGCCUGCUGAGAAGCGUGGUGCAGCUGGGUCUGGGACUUCACUAGAGCUUACUCUGGAGCACCUAUUUUCUGUGCACAUGGGAGUGCUCCACUCCCUAGCAGA	0.133
UGCCCCGAGCCCUAGGUGGGGCCAGGAGGUGCCUUGGAGAAGCCAGCCAGAGCAGAGAGGGCUGCUGACUUCCGUGUGGAGCAGAGAGGCCUGAGGGCCUCCUAAAAGGU	1.08

Series 2
Target: Interferon regulatory factor 7, full length, phosphomimetic (IRF7, Homo sapiens, UniProt Q92985, residues 1-503, S471D/S472D/S475D/S476D/S477D/S483D/S484D/S487D)
Chain of UniProt Q92985 (whole entry, unmodified, looked up): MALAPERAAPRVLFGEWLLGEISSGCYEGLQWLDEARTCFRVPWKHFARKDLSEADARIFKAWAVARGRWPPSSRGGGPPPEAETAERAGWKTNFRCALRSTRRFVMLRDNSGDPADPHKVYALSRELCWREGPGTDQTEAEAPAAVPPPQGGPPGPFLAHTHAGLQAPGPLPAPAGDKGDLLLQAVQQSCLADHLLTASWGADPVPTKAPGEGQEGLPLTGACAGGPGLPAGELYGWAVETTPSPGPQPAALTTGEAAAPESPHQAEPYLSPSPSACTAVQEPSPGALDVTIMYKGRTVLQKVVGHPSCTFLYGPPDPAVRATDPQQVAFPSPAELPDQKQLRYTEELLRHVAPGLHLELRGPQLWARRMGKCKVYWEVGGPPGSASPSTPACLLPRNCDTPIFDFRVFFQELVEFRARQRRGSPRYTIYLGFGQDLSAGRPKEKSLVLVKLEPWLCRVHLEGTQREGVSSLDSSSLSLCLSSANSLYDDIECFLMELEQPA
Method: protein-binding microarray
Molecule type: double-stranded DNA, one strand shown
Sample: in vitro
Tested at: 2200 nM top
Notes: 60-bp whole probe
Added: salmon DNA 0.4 mg/ml
Relative to: random background probes
Direction: higher = stronger binding
Constant ends, left off below: GCCTAGCAC … GTCTTGATTCGCTTGACGCTGCTG
Strand	fitted relative affinity
TTAGCACTGAGTCTCGATTAGTGCTAG	-0.207 z-score
TCATATTAAAATTTCATACTGTGCTAG	0.432 z-score
GACGAACTGGGGCTTCGAGACGTGCTA	-0.252 z-score
TACGGTTCCCTTTTCCTGACGTGCTAG	2.92 z-score
TTAGGTATCCTTCTTCTTTAGTGCTAG	0.954 z-score
GACGAGCTGGGGACTGGAGACGTGCTA	-0.742 z-score
GACGGTATCGATTTTCGGGACGTGCTA	2.74 z-score
TTAGGTCTAGGTCTCGGTTAGTGCTAG	0.257 z-score

Other studies, line by line
Tested at: not given
Direction: lower = stronger binding
FHL1 DNA-binding domain: Pre-rRNA-processing protein FHL1, DNA-binding domain (FHL1, Saccharomyces cerevisiae, UniProt P39521, residues 401-638)
Chain of UniProt P39521 (401-638, looked up): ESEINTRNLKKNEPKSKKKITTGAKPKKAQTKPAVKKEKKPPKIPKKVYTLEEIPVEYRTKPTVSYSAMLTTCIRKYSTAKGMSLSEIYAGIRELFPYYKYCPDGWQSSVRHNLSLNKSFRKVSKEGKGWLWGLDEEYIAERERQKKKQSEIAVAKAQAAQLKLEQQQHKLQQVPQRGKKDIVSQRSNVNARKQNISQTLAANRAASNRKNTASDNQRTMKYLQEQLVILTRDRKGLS
P1: PafA, mature enzyme, eGFP fusion (Elizabethkingia meningoseptica, UniProt Q9KJX5); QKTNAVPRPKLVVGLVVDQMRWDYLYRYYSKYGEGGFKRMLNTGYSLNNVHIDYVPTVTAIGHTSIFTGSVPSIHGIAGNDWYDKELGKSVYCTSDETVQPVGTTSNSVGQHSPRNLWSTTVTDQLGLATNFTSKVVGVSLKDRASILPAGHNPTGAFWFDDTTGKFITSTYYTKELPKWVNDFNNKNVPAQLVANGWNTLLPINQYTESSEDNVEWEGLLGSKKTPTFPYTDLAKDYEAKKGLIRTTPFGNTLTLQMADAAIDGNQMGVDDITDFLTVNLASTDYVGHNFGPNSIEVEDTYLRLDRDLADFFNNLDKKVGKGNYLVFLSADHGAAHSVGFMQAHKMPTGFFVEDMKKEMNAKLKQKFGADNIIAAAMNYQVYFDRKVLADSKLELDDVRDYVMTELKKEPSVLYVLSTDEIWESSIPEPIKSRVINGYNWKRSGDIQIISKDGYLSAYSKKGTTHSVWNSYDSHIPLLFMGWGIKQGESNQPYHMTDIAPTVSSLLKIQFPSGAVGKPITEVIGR
Substance	target	assay	system	setting	scale	endpoint	value
GACGCT	FHL1 DNA-binding domain	SELEX-seq	double-stranded DNA, one strand shown, in vitro	6-bp core, flanks averaged	relative to: best-binding core	relative binding free energy	0.385 ddG/RT
P1 V55G	inorganic phosphate, free oxyanion	microfluidic competitive inhibition	in vitro, cell-free expressed	derived from inhibition constants, unchanged parent 615000 nM	–	phosphate dissociation constant	208 µM
GACGCG	FHL1 DNA-binding domain	SELEX-seq	double-stranded DNA, one strand shown, in vitro	6-bp core, flanks averaged	relative to: best-binding core	relative binding free energy	0.194 ddG/RT

Excerpt of the above (series 1):
Strand	RBNS enrichment (R)
UUCCUCCUGGACCCCAUCCUCUACCAUCCAAGCCCUGUCCCACUUUGGCCCUAUCCUCUCCAUUAGCUCCUUCCGGGUUUGGACCAUUCCCCCCACUCCCUACCCUUAAU	0.979
UGCCACUAAUUUUAGUAUUCAUUCUGCAUUGCUAGAUAAAAGCUGAAGUUACUUUAUGUUUGUCUUUUAAUGCUUCAUUCAAUAUUGACAUUUGUAGUUGAGCGGGGGGU	0.247
UGGAGCCAGCCUGCUGAGAAGCGUGGUGCAGCUGGGUCUGGGACUUCACUAGAGCUUACUCUGGAGCACCUAUUUUCUGUGCACAUGGGAGUGCUCCACUCCCUAGCAGA	0.133
